# Results collected from several papers.
# Compare with care: the assays were run in different laboratories. Several values in a cell are separate wells, animals, samples, runs or records. ± marks the error that the study gave.
# HCRTR2 del254-292/I293E/K294R/L160H/M161K/Q254E: Orexin receptor type 2 (HCRTR2, Homo sapiens, UniProt O43614, del254-292/I293E/K294R/L160H/M161K/Q254E)
# Chain of UniProt O43614 (whole entry, unmodified, looked up): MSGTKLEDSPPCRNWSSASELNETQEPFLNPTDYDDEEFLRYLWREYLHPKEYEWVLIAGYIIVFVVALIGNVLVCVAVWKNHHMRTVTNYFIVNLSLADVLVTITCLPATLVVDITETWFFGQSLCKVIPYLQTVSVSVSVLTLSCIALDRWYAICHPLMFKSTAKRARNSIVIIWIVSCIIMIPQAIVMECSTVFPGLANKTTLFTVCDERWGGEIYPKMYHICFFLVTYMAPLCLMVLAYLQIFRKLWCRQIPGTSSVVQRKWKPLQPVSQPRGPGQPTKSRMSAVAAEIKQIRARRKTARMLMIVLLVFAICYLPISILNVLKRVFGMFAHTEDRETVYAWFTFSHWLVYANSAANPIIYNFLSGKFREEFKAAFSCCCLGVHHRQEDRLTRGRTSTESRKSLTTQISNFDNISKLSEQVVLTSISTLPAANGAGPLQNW
# B1: enzyme (Enterococcus faecalis, UniProt Q836M4); chain MEIHFEKVTSDNRKAVENLQVFAEQQAFIESMAENLKESDQFPEWESAGIYDGNQLIGYAMYGRWQDGRVWLDRFLIDQRFQGQGYGKAACRLLMLKLIEKYQTNKLYLSVYDTNSSAIRLYQQLGFVFNGELDTNGERVMEWTHQNK
# B2: CAND1; sequence looked up; chain ASASYHISNLLEKMTSSDKDFRFMATNDLMTELQKDSIKLDDDSERKVVKMILKLLEDKNGEVQNLAVKCLGPLVSKVKEYQVETIVDTLCTNMLSDKEQLRDISSIGLKTVIGELPPASSGSALAANVCKKITGRLTSAIAKQEDVSVQLEALDIMADMLSRQGGLLVNFHPSILTCLLPQLTSPRLAVRKRTIIALGHLVMSCGNIVFVDLIEHLLSELSKNDSMSTTRTYIQCIAAISRQAGHRIGEYLEKIIPLVVKFCNVDDDELREYCIQAFESFVRRCPKEVYPHVSTIINICLKYLTYDPNYNYDDEDEDENAMDADGGDDDDQGSDDEYSDDDDMSWKVRRAAAKCLDAVVSTRHEMLPEFYKTVSPALISRFKEREENVKADVFHAYLSLLKQTRPVQSWLCDPDAMEQGETPLTMLQSQVPNIVKALHKQMKEKSVKTRQCCFNMLTELVNVLPGALTQHIPVLVPGIIFSLNDKSSSSNLKIDALSCLYVILCNHSPQVFHPHVQALVPPVVACVGDPFYKITSEALLVTQQLVKVIRPLDQPSSFDATPYIKDLFTCTIKRLKAADIDQEVKERAISCMGQIICNLGDNLGSDLPNTLQIFLERLKNEITRLTTVKALTLIAGSPLKIDLRPVLGEGVPILASFLRKNQRALKLGTLSALDILIKNYSDSLTAAMIDAVLDELPPLISESDMHVSQMAISFLTTLAKVYPSSLSKISGSILNELIGLVRSPLLQGGALSAMLDFFQALVVTGTNNLGYMDLLRMLTGPVYSQSTALTHKQSYYSIAKCVAALTRACPKEGPAVVGQFIQDVKNSRSTDSIRLLALLSLGEVGHHIDLSGQLELKSVILEAFSSPSEEVKSAASYALGSISVGNLPEYLPFVLQEITSQPKRQYLLLHSLKEIISSASVVGLKPYVENIWALLLKHCECAEEGTRNVVAECLGKLTLIDPETLLPRLKGYLISGSSYARSSVVTAVKFTISDHPQPIDPLLKNCIGDFLKTLEDPDLNVRRVALVTFNSAAHNKPSLIRDLLDTVLPHLYNETKVRKELIREVEMGPFKHTVDDGLDIRKAAFECMYTLLDSCLDRLDIFEFLNHVEDGLKDHYDIKMLTFLMLVRLSTLCPSAVLQRLDRLVEPLRATCTTKVKANSVKQEFEKQDELKRSAMRAVAALLTIPEAEKSPLMSEFQSQISSNPELAAIFESIQKDSSSTNLESMDTS
# B3: CCT8; sequence looked up; chain ALHVPKAPGFAQMLKEGAKHFSGLEEAVYRNIQACKELAQTTRTAYGPNGMNKMVINHLEKLFVTNDAATILRELEVQHPAAKMIVMASHMQEQEVGDGTNFVLVFAGALLELAEELLRIGLSVSEVIEGYEIACRKAHEILPNLVCCSAKNLRDIDEVSSLLRTSIMSKQYGNEVFLAKLIAQACVSIFPDSGHFNVDNIRVCKILGSGISSSSVLHGMVFKKETEGDVTSVKDAKIAVYSCPFDGMITETKGTVLIKTAEELMNFSKGEENLMDAQVKAIADTGANVVVTGGKVADMALHYANKYNIMLVRLNSKWDLRRLCKTVGATALPRLTPPVLEEMGHCDSVYLSEVGDTQVVVFKHEKEDGAISTIVLRGSTDNLMDDIERAVDDGVNTFKVLTRDKRLVPGGGATEIELAKQITSYGETCPGLEQYAIKKFAEAFEAIPRALAENSGVKANEVISKLYAVHQEGNKNVGLDIEAEVPAVKDMLEAGILDTYLGKYWAIKLATNAAVTVLRVDQIIMAKPAGGPKPPSGKKDWDDDQND
# B4: APOBEC3C; sequence looked up; chain MNPQIRNPMKAMYPGTFYFQFKNLWEANDRNETWLCFTVEGIKRRSVVSWKTGVFRNQVDSETHCHAERCFLSWFCDDILSPNTKYQVTWYTSWSPCPDCAGEVAEFLARHSNVNLTIFTARLYYFQYPCYQEGLRSLSQEGVAVEIMDYEDFKYCWENFVYNDNEPFKPWKGLKTNFRLLKRRLRESLQ
# Chain of UniProt P09616 (whole entry, looked up): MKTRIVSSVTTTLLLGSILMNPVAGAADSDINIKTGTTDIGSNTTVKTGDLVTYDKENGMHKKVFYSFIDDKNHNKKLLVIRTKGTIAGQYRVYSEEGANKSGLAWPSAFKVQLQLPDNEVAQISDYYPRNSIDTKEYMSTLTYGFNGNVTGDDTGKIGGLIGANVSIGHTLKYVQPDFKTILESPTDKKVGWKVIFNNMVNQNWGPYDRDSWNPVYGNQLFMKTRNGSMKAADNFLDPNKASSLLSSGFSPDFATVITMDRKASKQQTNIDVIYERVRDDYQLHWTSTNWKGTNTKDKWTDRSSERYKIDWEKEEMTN
Substance,tested on,assay,test system,conditions,how to read,quantity,value
PKYVKQNTLKLAT,stimulated healthy donor PBMCs,"single-epitope tetramer staining, item: DRB1*01:01 tetramer",peptide,concentration not given,reference: CD4 T cells,antigen-specific CD4 T cells,2.1%
Tunicamycin,HEK293,"western blot, item: total eIF2α",,"10 µg/mL, 6 h, unit not given",reference: mock,protein level,0.921 and 1.26 and 1.19
DnaJ homolog DNAJA1,,"peptide binding, SILAC pull-down",,concentration not given,reference: non-acetylated over acetylated NIT1 peptide,log2 fold change,0.651
glucagon,,isotope dilution,"human, type 1 diabetes","intravenous infusion, 0.05 ng/kg/min, 100 to 120 min",,splanchnic extraction,26.6 ± 5%
EFTEDELPSDSCVFGGQKLTL,"IKK, human",,peptide,"500 µM, 10 min, 30 °C, together with: IκBα 1 µM",reference: no peptide,IκBα phosphorylation,14% and 19% and 3.25%
B1 (enzyme),NCCCCNCCCN,steady-state kinetics,,"pH 8, 37 °C, together with: AcCoA 1 mM",,kcat/Km,1560 M⁻¹ s⁻¹
KKSEIYVAW,Mamu-A1*02601 MHC class I,peptide binding,"peptide, Chinese rhesus macaque",,,IC50,> 20 µM
"RNA 1 AACAAAACAAAAUAGCACCGUAAAGC / RNA 2 GCUUUACGGUGCUA (dsRNA; 14 bp duplex, 5' 12 nt overhang)","rhlE 1-384 (Pseudomonas aeruginosa, UniProt Q9I689)",fluorescence polarization,double-stranded RNA,together with: AMP-PNP 1 mM,,Kd,0.0059 µM
C19orf53 protein,,"peptide binding, SILAC pull-down",,concentration not given,reference: non-acetylated over acetylated NIT1 peptide,log2 fold change,-1.77
capreomycin sulfate,,,"guinea pig, serum","insufflation, dose not given, dry powder combination single dose",,half-life,45.4 min
B2 (CAND1),,"peptide binding, SILAC pull-down",,concentration not given,reference: non-acetylated over acetylated NIT1 peptide,log2 fold change,3.32
Polymyxin B,,,mouse,"intraperitoneal, 40 mg/kg single dose, day 4",,survival,0%
pertussis toxin,,"immunostaining, item: p-PKA","humanized UT (+/h+) mice, SAH model, Macrophages, F4/80+, peri-MCA",dose not given,,phospho-PKA level,17.2 MFI and 19.2 MFI and 17.3 MFI
amyloid β-peptide (1–28),trypsin,"substrate, LC-MS",,"10 µM, 60 min, pH 7.4, 25 °C",,residual substrate,40.7 ± 4.2%
Met-enkephalin-Arg-Phe,,"antinociception, hot plate",male ICR-CD1 mice,"intracerebroventricular, 50 µg/animal, 15 min",,maximum possible effect,4.7% and 2.09% and 1.53% and 6.33% and 11.5% and 5.17% and 12.6% and 12.8%
GWTLNSAGYLLGPHAVDNHRSFNDKHGFT-NH2 (C-amide),,"RT-qPCR, item: Ocln","peptide, mouse, DSS-induced colitis, colon","ip, 3 µM, 3% DSS, unit not given",reference: Gapdh,mRNA level,2.2 and 2.35 and 2.03 and 1.44
CTPS1,,"peptide binding, SILAC pull-down",,concentration not given,reference: non-acetylated over acetylated NIT1 peptide,log2 fold change,0.184
heparin sodium,,,healthy Chinese adult volunteers,"continuous intravenous infusion, 8 IU/kg/h, 5 days",,subjects with drug-related AEs,100%
B3 (CCT8),,"peptide binding, SILAC pull-down",,concentration not given,reference: non-acetylated over acetylated NIT1 peptide,log2 fold change,1.85
dynorphin,HCRTR2 del254-292/I293E/K294R/L160H/M161K/Q254E,"sensor fluorescence, fluorescence imaging",HEK293T,"concentration not given, unit not given",reference: baseline,ΔF/F0,0.118 and 3.13 and 0.624 and 1.88 and -1.65 and -0.728
B4 (APOBEC3C),,"peptide binding, SILAC pull-down",,concentration not given,reference: non-acetylated over acetylated NIT1 peptide,log2 fold change,-0.282
colistin,Aspergillus fumigatus,,conidia,"10 µM, together with: caspofungin 0.2 µg/mL",reference: caspofungin alone,CFU relative to caspofungin alone,2.21 and 1.51 and 2.05
APVPIPFAA,Mamu-A1*02601 MHC class I,peptide binding,"peptide, Chinese rhesus macaque",,,IC50,> 20 µM
ECM29,,"peptide binding, SILAC pull-down",,concentration not given,reference: non-acetylated over acetylated NIT1 peptide,log2 fold change,3.08
(−)-antroquinonol A,Hep3B,"cytotoxicity, MTS",,,,IC50,8.91 µM and 7.21 µM
RTLEDLLMGT,ASPC1 (HLA-A2− HPV−),111In release,peptide,"concentration not given, 16 h, E:T 25:1, IVS 5, together with: peptide-generated T-cell line",,specific lysis,0.5% and 1.1%
GWTLNSAGYLLGPRRIDHLLMIKEMPIARGREEAPGA / YAVDNHRSFNDKHGFT-NH2 (C-amide),,,"Arrb2 intestinal cKO mice, DSS colitis","ip, 3 µM, 2% DSS",,colon length,5.8 cm and 5.2 cm and 5.1 cm and 6 cm and 5.4 cm
DPDPE,,RP-HPLC,HALO RP-amide column,"25 µM, acetic acid/methanol, 25 min gradient",,retention time,15.4 min
FINTKEYKN,Mamu-B*08301 MHC class I,peptide binding,"peptide, Chinese rhesus macaque",,,IC50,> 20 µM
lead,non-cancerous,CCK-8,,"1 µM, 24 h, unit not given",reference: untreated control,viability,0.6
orexin-B,HCRTR2 del254-292/I293E/K294R/L160H/M161K/Q254E,"sensor fluorescence, fluorescence imaging",HEK293T,"10 µM, together with: OXB 10 µM",reference: baseline,maximal ΔF/F0,833% and 750% and 832% and 887% and 787% and 849%
mycosubtilin,,calcein leakage,DOPC/CHOL liposomes,"concentration not given, together with: 20 wt% PEG-8000",,maximum fusion,51 ± 12%
AQAKINAKANEGR (BAG2),,"peptide binding, SILAC pull-down",,concentration not given,reference: non-acetylated over acetylated NIT1 peptide,log2 fold change,0.302
brain natriuretic peptide,"hly (Staphylococcus aureus, UniProt P09616)",nanopore sensing,,symmetric electrolyte,,limit of detection,~1.23 nM
hexaarginine,PorA peptide pore,"peptide binding, planar bilayer single-channel recording",,"0.5 µM, pH 7.4, +5 mV, trans side, 150 mM KCl",,koff,1090 ± 100 s⁻¹
insulin human,,item: GRIN2A mRNA,"uninfected mouse, brain","i.p., dose not given",reference: PBS,fold change,1.2
KLPQLCTEL,HN-4 (HLA-A2+ HPV+),111In release,peptide,"concentration not given, 16 h, E:T 25:1 IVS 5, together with: peptide-generated T-cell line",,specific lysis,21.2%
HVLVMSATRR,,"H&E histopathology, item: mononuclear cell infiltrate","peptide, C57BL/6J mouse, female, kidney","Alzet pump, 3 mg/kg, 8 weeks",direction not given,severity score,1 F
aspterric acid,,root length,Arabidopsis thaliana Col-0 seeds,6.25 µg/mL,,inhibition,89.3%
TLHEYMLDL,HPV16 E7-specific T-cell line,ELISA,"peptide, supernatant","concentration not given, 24 h, together with: peptide-pulsed autologous B cells",,IFN-γ release,475 pg/mL
nonaarginine,PorA peptide pore,"peptide binding, planar bilayer single-channel recording",,"0.5 µM, pH 7.4, +10 mV, trans side, 150 mM KCl",,kon,2.8e+06 ± 300000 M⁻¹ s⁻¹
